Results gathered from unrelated publications.
Each numbered part is a random draw from the data of one study; scales do not carry over between parts. Positions count from the first letter of the parent shown.

Block 1 — target: CCNE2, cyclin fold, Cln2 fusion (human); method: yeast growth competition, sequencing; medium: yeast; notes: strong parent motif; relative to: not given; reading: higher = stronger binding
Starting sequence: BRCA2 docking peptide (human); PSIKRNLLNEFDR; partner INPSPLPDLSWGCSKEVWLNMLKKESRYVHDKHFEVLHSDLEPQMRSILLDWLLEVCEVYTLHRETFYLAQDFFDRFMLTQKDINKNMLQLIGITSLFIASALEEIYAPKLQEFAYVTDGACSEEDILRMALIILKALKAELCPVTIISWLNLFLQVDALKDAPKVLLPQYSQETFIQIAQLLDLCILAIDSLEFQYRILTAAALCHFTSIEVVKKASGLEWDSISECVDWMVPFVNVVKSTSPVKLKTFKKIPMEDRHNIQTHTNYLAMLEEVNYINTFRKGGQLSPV
Variant | normalised enrichment score
D12A | 3.16
K4A | 0.398
R13E | 1.44
E10W | 1.44
P1Q | 2.01
R13C | 0.688
L7F | -0.0682

Block 2 — method: DHFR PCA, deep sequencing; medium: yeast; added: (+)-ABA 200 µM; relative to: wild-type fitted maximum; reading: higher = stronger binding
Target: ABI1, truncated, D143A, DHFR fusion (Arabidopsis thaliana)
Notes: methotrexate growth selection, single substitutions
Starting sequence: PYL1, truncated, DHFR fusion (Arabidopsis thaliana); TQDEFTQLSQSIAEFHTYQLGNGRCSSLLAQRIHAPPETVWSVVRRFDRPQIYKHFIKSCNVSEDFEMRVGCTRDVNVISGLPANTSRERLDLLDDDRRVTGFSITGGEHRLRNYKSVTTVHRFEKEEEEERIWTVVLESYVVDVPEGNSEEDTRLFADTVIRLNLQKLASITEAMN; partner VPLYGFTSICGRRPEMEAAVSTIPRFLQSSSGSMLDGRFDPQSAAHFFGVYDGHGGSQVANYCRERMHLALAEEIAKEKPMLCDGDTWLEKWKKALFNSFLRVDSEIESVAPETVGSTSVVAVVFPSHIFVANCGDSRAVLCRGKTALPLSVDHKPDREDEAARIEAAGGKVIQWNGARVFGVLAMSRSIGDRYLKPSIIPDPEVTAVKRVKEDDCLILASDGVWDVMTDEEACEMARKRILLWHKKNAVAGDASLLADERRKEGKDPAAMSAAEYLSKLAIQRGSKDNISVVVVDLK
Variant | relative binding score [%]
T6W | 94.8
L94V | 75.5
Q51P | -3.5
V136N | 31.2
Q2E | 101
E4G | 87.5
S26H | 96.6

Block 3 — method: RNA Bind-n-Seq; molecule type: RNA; medium: in vitro; concentration: 365 nM; relative to: no-protein control; reading: higher = stronger binding
Target: RNA binding protein fox-1 homolog 2, RRM domain, GST-SBP tag (RBFOX2, Homo sapiens, UniProt O43251-10, residues 100-194)
Notes: natural RNA segment, single round, ends assumed
Shared flanks, not repeated: GGGAGUUCUACAGUCCGACGAUC … UGGAAUUCUCGGGUGCCAA
Residues (chain): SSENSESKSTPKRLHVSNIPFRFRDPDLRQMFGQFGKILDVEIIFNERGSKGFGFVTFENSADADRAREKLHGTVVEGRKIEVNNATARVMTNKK
Sequence | RBNS enrichment (R)
UUAUAUACUUCCUCCGGGUCUCUAGGAACUCAGACUUUUUUAAACAUAGAUGUAAAUAAGGAACAGUUUGUCACACCUGACCCCAGUGAGUGGGGGGAAGGGCAGCUGUU | 0.678
UACAAAUCUUUAAGUCAUUUUAACUUUUUUUUCUGCCUUACGAUAUAAAAAUAUUUAUCUUAGAAUUUGAGAUGUUCAUAGCAUGUUUUAUUACAUUGAAGAAACUAAAA | 8.4
UUGCUCGCAGCUGGGGUGUGGGGCCAAGUGGCAGCCAGGGCCAAGACAAGCAGCAUCUGUCCCCCCCAGAGCCAUCUAGCUACUGACACUGCCCCCAGCUUUGCUUCUCA | 0.98
ACUUCAUUAGAUUUAAUUUCUAGGCCAAGAUGUUACUUUUUAAAGUGCAGUUUAAGGUUCAGGCAUGCAUUCUGGCUCAUAGUGGUUGAAAGUAAUUUAAAUUAGUGGGA | 3.75
CAAACUGGUAUCUCUUGCUGAUGGACAGAGGGACACAGGUAGAGCAGCUAAGCUGAAAGUGCCCAGCAGGUGCAAAGGGGAAAAAGAACAAGGUUUGAGGAGGAAGUAGU | 0.875
AACAUCAGCCUUGGGUGGUGUGUUCCUAUAUAAACUCCAAAGGGAAACACACCGACUGCCUCAGCAAUCAUGCAAAGACCUUGCCUGGCCCGGUGGCAAGCGCUGAAAAA | 0.321
CAAAUUGUGCUAUUACUCCAAGGUCCAACUUUUCCAGUGCAUUACAUGGUAUUGUAUAUCAGUGGAGAAAUGUAUUAUUUCCAUGAUCAAAUGUAGUCUCUGUUAAGGUC | 0.834

Mixed results
Substance | target | assay | test system | setting | how to read | measurement | value
PhoQ, residues 284 288 289 292 302 303 SSLVEF | PhoP, residues 12 14 15 18 19 AGCRL (Escherichia coli, UniProt P23836) | Sort-seq, refers to: YFP reporter | E. coli | PhoQ-PhoP variant library, added: 10 µM Mg2+ | relative to: high Mg2+ state, higher = stronger signaling | fold induction | 11.7

Some of these lines once more (block 3):
Sequence | RBNS enrichment (R)
ACUUCAUUAGAUUUAAUUUCUAGGCCAAGAUGUUACUUUUUAAAGUGCAGUUUAAGGUUCAGGCAUGCAUUCUGGCUCAUAGUGGUUGAAAGUAAUUUAAAUUAGUGGGA | 3.75
CAAAUUGUGCUAUUACUCCAAGGUCCAACUUUUCCAGUGCAUUACAUGGUAUUGUAUAUCAGUGGAGAAAUGUAUUAUUUCCAUGAUCAAAUGUAGUCUCUGUUAAGGUC | 0.834
AACAUCAGCCUUGGGUGGUGUGUUCCUAUAUAAACUCCAAAGGGAAACACACCGACUGCCUCAGCAAUCAUGCAAAGACCUUGCCUGGCCCGGUGGCAAGCGCUGAAAAA | 0.321
